Experimental data collected from several papers.
Parts stem from different laboratories: compare values within a part only.

Sample 1
Target: RING finger protein unkempt homolog, zinc fingers 1-6, GST-SBP tag (UNK, Homo sapiens, UniProt Q9C0B0, residues 30-357)
UniProt Q9C0B0, sequence (30-357, looked up): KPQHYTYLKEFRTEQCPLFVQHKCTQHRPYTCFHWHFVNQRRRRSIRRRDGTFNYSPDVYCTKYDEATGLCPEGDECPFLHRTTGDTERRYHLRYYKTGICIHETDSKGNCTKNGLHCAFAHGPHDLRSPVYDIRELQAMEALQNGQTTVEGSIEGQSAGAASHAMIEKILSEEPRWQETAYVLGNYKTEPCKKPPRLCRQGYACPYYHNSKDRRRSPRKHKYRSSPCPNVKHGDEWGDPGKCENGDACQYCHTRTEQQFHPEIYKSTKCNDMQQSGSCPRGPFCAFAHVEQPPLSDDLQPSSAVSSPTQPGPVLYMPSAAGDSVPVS
Method: RNA Bind-n-Seq
Form: RNA
Sample: in vitro
Concentration: not given
Notes: RNA with constant flanks, human-mouse chimeric sites, ends assumed
Reference: input RNA pool
Direction: higher = stronger binding
Quantity: bound/input enrichment
All sequences stand within: GGGAGUUCUACAGUCCGACGAUC … CAACAGAGGAUUGAGCAUCA
GGCUGCUGGUGACUGUCCUGGAGUGGCCGUGUCACCGGCCGGAGCGCGGCCAGACUAAUUUUAGAAAAUGCCAAGUAGGAAGUUUGUCGAUGGUGAAGUGGUCAGAGGCCGAUGGCCUGG: 1.86 ratio
GAAUCCUCCCGUGCAAAAUUUUGCAACACCAAGCUCAAGUAGCAAUUAUCUUAGUCACAGUAGGGUAGUUUUGGGGCUCUGUGGCCAGGGUUUUAUUCACAUGCAGGUUUGGAAAAUGUA: 2.12 ratio
CUGUGUGUGCUGAAUAAAUGGCUUGUAAAGAAGUUUUUCCAAGCUGUAACCCAUGCUGUUAUUAUAGUUGCUGCAAAAUGUCUCUUAUGAUAUUGAUUUUAUUUGUUAACUGAAGGUCUC: 0.425 ratio
CAGUCCCCGUGUCCCAGUGCAGGACGAUGUGAACAAAUCGAAGACAUGGACCCUCUAUUGUAGUUCUUGAUUCUCGAAAUGUGCUAUUAUUGUUUGUCUUUUUUUUUUUUUUUUUAAAGA: 1.34 ratio
CUUUUUGAAUCAUUCAAGAGUUUUGAAGGUCUCUUUUAUUUUCUGGGGUCCAUUGUUAACUUUAGUCAGGACCCAGAUGUGCACUUUAAAUAUAUUCAGGCGGCUUGCAAGACUGGGCAA: 0.741 ratio
ACUCAGAGAUCCACCUCCCAAAGUGCUGGGAGUAAAGGUGUGGCCACCACACCUAACUUGAUGGAUAUAUAUUUUUUCUCUUUUAUGUGAACUCUUGCGUCCAGGGAAGAAAGAUUUGUU: 0.152 ratio
CAGCCUCAGAGCCCAGACUUCCUGGAUAUUACCAACCCUAAAGCGGUAUUAGAAAACGCAUUGAGAAACUUCGCCUGUCUGACGACUGGAGAUGUGAUUGCUAUCAACUACAAUGAGAAG: 0.357 ratio
AGAUUCCCCCUCCUGAGACCUCCUCCGAAAUUGGCAUCUCUUACAGAUGCCUCAUCCCCUGUUAGCGUUUUAGUUUGGACCACCCAGCCUUGGACAAUUCCCGCCAAUGAAGCUGUUUGC: 1.83 ratio
CGGAGCCCUCCUCUCCCACAGGCCCAAGAUAUAACCCACCAGUGCCUUCUGUCUGCUUGUCAGCUCUGUCAAUCACGCCUGUCCUCUGUCCCUCUCACCAAGUGCCCAAAGUGGGGAGGG: 0.492 ratio
AAAGAGAAACUAAAGCAACUAAUAGAGAAGAGGAUUGGCAAAGAGAAUUUCAUAGAGAAACUAGGAUUUAUUAGCAAAACAUGAGUUUAUUCCAGAGCGUCUCAGAAACCCCAGCCAAAC: 12.1 ratio
UACUCAACUUUCUUGCCACAUUUUGAAUUCCAAGAUGUUAUUCCUCCAGAUGACUUCCUAACGAGUGAUGAAGAGCAAGAUUUGGUUUUAUUUGGAACUAUGAGAGGACAAGUUGUUGGA: 0.155 ratio

Sample 2
Target: Interferon regulatory factor 5, full length, phosphomimetic (IRF5, Homo sapiens, UniProt Q13568-2, residues 1-514, S451D/S453D/S456D/S462D)
Method: protein-binding microarray
Form: double-stranded DNA, one strand shown
Sample: in vitro
Concentration: 940 nM top
Notes: 60-bp whole probe
With: salmon DNA 0.4 mg/ml
Reference: random background probes
Direction: higher = stronger binding
Quantity: fitted relative affinity
All sequences stand within: GCCTAGCAC … GTCTTGATTCGCTTGACGCTGCTG
TTAGGTTTCGGTTACGGTTAGTGCTAG: 15 z-score
GACAGTTTCGGGTATCGGGACGTGCTA: 10.8 z-score
TCAGGTCTCGGTATCGGTTAGTGCTAG: 6.76 z-score
TACGGTTTCGGACTGGGGACGTGCTAG: 5.68 z-score
GACGGTTTCGACTATCGGCACGTGCTA: 8.08 z-score
TCATTTTACATTATTACACTGTGCTAG: 1.21 z-score
GACGATTTCAGCCTCGAGACGTGCTAG: 0.0348 z-score
GCTCCTTTTAATTTTTAACGGTGCTAG: 0.667 z-score
GCATCGTAAGCAAAAATGATGTGCTAG: -0.399 z-score
GACGGAGTGGACACTGGGGACGTGCTA: -0.375 z-score
CCATACTTCCCACTGGTCTTGTGCTAG: 0.847 z-score
TCATATTTATAAATTATACTGTGCTAG: 0.54 z-score
TCATCCTTTACTTTCTTACTGTGCTAG: 1.64 z-score
GACGGACTGGACTATCGGAACGTGCTA: -0.308 z-score
GACGGACTGCTGATCCTGACGTGCTAG: -0.693 z-score
TCAACTTTCTGAATGCCACTGTGCTAG: 0.696 z-score

Sample 3
Target: Sal-like protein 4, full length isoform B (SALL4, Homo sapiens, UniProt Q9UJQ4-2, residues 1-616)
Method: universal PBM
Form: double-stranded DNA, one strand shown
Sample: in vitro
Concentration: not given
Notes: 8-mer, flanks averaged, mean of replicates
Direction: higher = stronger binding
Quantity: E-score
GGGTACAA: -0.0251
CATACACC: -0.0928
GTTCGTCA: -0.0676
CAAACAAA: 0.135
AACACGCT: 0.00617
AATACAGC: 0.0345
GAAGAAGC: -0.14
CCTTCGTC: -0.148
GGTAATTA: 0.195
CATCATAG: 0.103
CGTTTCGC: -0.229
GCTGCACC: -0.314
GGTGGCCA: -0.174
CGTACAAG: 0.001
ACAACCGA: -0.0289
AGCCGAAG: -0.182
ACCACATG: 0.15
CAGCCGTA: -0.203
GTGCGTGA: -0.0527
GATGCAAC: -0.113
CTATCACC: -0.062
AATTTCGC: 0.118
ACACTCAC: 0.0129
AAGCAATC: 0.106
CACCCCCC: -0.254

Sample 4
Target: Ras GTPase-activating protein-binding protein 1, C-terminal RGG region (G3BP1, Homo sapiens, UniProt Q13283)
UniProt Q13283, sequence (whole entry, looked up): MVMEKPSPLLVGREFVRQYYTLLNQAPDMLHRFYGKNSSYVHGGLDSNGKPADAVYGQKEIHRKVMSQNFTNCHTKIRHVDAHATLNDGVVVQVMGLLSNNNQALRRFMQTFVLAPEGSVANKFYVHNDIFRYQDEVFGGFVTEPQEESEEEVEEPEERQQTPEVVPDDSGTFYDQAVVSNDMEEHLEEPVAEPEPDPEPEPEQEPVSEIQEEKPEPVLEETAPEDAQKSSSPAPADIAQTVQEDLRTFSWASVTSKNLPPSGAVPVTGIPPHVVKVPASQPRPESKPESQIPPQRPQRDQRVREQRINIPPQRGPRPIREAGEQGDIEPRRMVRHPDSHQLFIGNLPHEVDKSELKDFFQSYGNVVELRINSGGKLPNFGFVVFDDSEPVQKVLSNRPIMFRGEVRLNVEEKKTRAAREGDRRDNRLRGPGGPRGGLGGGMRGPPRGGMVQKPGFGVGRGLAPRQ
Method: RNA Bind-n-Seq
Form: RNA
Sample: in vitro
Concentration: 1 µM
Notes: whole 134-nt RNA, ends assumed
With: 150 mM KCl
Reference: input library
Direction: higher = stronger binding
Quantity: log2 enrichment
All sequences stand within: GGGAGUUCUACAGUCCGACGAUC … UGGAAUUCUCGGGUGUCAAGG
UCCUCAAGUCCUGUGCUACACAUCGUAUGUACCGAAUCGGUGGGUGGGUGGGAAAGUAUUAUGUUACGCCGUUCGGAUCUGCACUUCCAG: 1.58
ACCAUGCAGGUGUGCAUCUUUGGGAAGUGGGGCAAGGGGGGGAUAGGGAGGGGGGUAACACUUUGGGAACAGGUGGUCCCAGGUCGUUUC: -1.68
UGGCCCUGGUGGCAUGCGGGGAUGAAGAGGUGGCCUCAUGGAUCGUGGUGGUCCCGGUGGAAUGUUCAGAGGUGGCCGUGGUGGAGACAG: 2.04
UCCUGUGCUACACAUCGUAUGUACCGAAUCGGGGUUUUUUUGGGGAGGGGUUUUUGGGGAAAGUAUUAUGUUACGCCGUUCGGAUCUGCA: 1.78
AAGUCCUGUGCUACACAUCGUAUGUACCGAAUCGGGGUUUUGGUUUUGGGUUUUGGAAAGUAUUAUGUUACGCCGUUCGGAUCUGCACUU: -1.55
UCAAGUCCUGUGCUACACAUCGUAUGUACCGAAUCGGGCCGGGCCGGGGCCGGGAAAGUAUUAUGUUACGCCGUUCGGAUCUGCACUUCC: 0.0465
GCAGGAAGUAAAAACAAAUGGAAAUGCUUCGGAUAGUGGCAGGGGUGGGGGUUGCUAAGGAAAGGGUGGGAUGGGAUUGGGUAAAGAGUU: 2.32
ACCAUGCAGGUGGGCAUCUUUGGGAAGUGGGGCAAGGGGGGGAUAGGGAGGGGGGUAACACUUCGGGAACAGGUGGUCCCAGGUCGUUUC: 2.19

For quick reference, copied from above (sample 3):
AATTTCGC: 0.118
ACACTCAC: 0.0129
AAGCAATC: 0.106
CACCCCCC: -0.254
